# Measured values from different studies.
# Protocols differ between the studies behind these lines. Several values in a cell are separate wells, animals, samples, runs or records.
# Target: Serine/threonine-protein kinase PAK 4 (PAK4, Homo sapiens, UniProt O96013)
Structure (SMILES),assay,setting,how to read,quantity,result
CCn1cc(C(=O)O)c(=O)c2c(N)c(F)c(NC3CCCCC3)cc21,kinase activity,"0.1 µM, with: ATP at Km",,inhibition,24.6%
CN1CCN(Cc2ccc(-c3ccc(CO[C@H]4CCC[C@@H]4NC(=O)c4cc(-c5cnn(C)c5)cnc4N)cc3)cc2)CC1,"enzyme activity, inhibitor",0.1 µM,,inhibition,0%
C=CC(=O)N1Cc2nc(-c3cc(-c4cc(Cl)cnc4Cl)c(F)cc3F)n(-c3ccncn3)c2C1,"cell-free assay, inhibitor",1 µM,,inhibition,7.7%
COc1cc(Nc2nccc(-c3cnn4nc(OC)ccc34)n2)cc(C(F)(F)F)c1,"binding, competition with immobilised ligand",1 µM,,remaining binding,92%
Cc1cccc(-c2ccc3nc(NC(=O)C4CCCO4)nn3c2)c1 (stereo not shown),"enzyme activity, Dundee kinase panel",10 µM,,remaining activity,111%
c1ccc2c(Nc3cc(C4CCC4)[nH]n3)nc(Nc3ccc4nc[nH]c4c3)nc2c1,"enzyme activity, inhibitor",0.25 µM,,remaining activity,13%
Cc1cccc(-c2ccc3nc(NC(=O)C4CCOCC4)nn3c2)c1,"enzyme activity, Dundee kinase panel",10 µM,,remaining activity,101%
Cc1nc2c(F)cc(-c3nc(Nc4ccc(CNC(=O)CCCCCCC(=O)NO)cc4)ncc3F)cc2n1C(C)C,"enzyme activity, inhibitor",1 µM,,inhibition,75%
COc1ccc(C(=O)/C=C/c2ccccc2-c2c[nH]c3ccc(C#N)cc23)c(O)c1,"enzyme activity, inhibitor",20 µM,,inhibition,-10%
Cc1ccc(-c2c(/C=C(\C#N)C(=O)NC(C)C)n(CCCO)c3ncnc(N)c23)cc1,"cell-free assay, competition with immobilised ligand",1 µM,,remaining binding,92%
C[C@H]1CN(C(=O)c2cn(-c3ccnc(N)n3)c3cc(C#CC4(O)CCCCC4)ccc23)CCN1,"enzyme activity, inhibitor, FRET",1 µM,,inhibition,100%
C=CC(=O)Nc1cccc(-c2cnc3[nH]cc(C(=O)NC(C)(C)C)c3n2)c1,kinase activity,0.1 µM,,inhibition,13% and 14%
CN1CCN(Cc2ccc(NC(=O)c3cccc(C#Cc4cnc(N)c5ncccc45)c3)cc2C(F)(F)F)CC1,"cell-free assay, competition with immobilised ligand",0.5 µM,,remaining binding,100%
NC(=O)C[C@H]1CCc2sc3ncnc(O[C@H]4CC[C@H](N5CCOCC5)CC4)c3c21,"enzyme activity, inhibitor",10 µM,,inhibition,4%
CC(C)=CC1OC(C)(C)C2C=C3C(=O)C(Cl)=CC(O)C3C3C(O)C4OC4C(=O)C132 (stereo not shown),"cell-free assay, competition with immobilised ligand",10 µM,,remaining binding,100%
CNC(=O)C1CCN(c2cc(C)c(F)cc2NC(=O)c2ccc(-c3cc(O)ccc3C)c(C)c2)CC1,"binding, competition with immobilised ligand",1 µM,,remaining binding,57%
Nc1ncc(-c2cc(-c3cnn(CC(F)(F)F)c3)ncc2F)nc1C(=O)NC1CNCC(F)C1 (stereo not shown),enzyme activity,1 µM,relative to: DMSO control,remaining activity,99.8%
Cc1cccc(O[C@H]2CCC[C@@H](C(C)CNCc3ccncc3)C2)c1 (relative stereo),"enzyme activity, inhibitor",1 µM,,inhibition,-5%
O=C=[N][Ru-4]123([n]4c5ccc(O)cc5c5c6c(c7cc(F)c[n+]1c7c54)C(=O)NC6=O)[S+]1CC[S+]2CC[S+]3CC1 (stereo not shown),enzyme activity,"100 nM, human enzyme, with: 10 µM ATP",relative to: untreated,remaining activity,104%
COc1ccc(NC(=O)Nc2ccc3c(c2)C(=O)N(C(C)CO)CC(C)C(CN(C)Cc2ccc4c(c2)OCO4)O3)cc1 (stereo not shown),"binding, competition with immobilised ligand",10 µM,,remaining binding,100%
O=C(Cc1ccc(OCc2ccccc2)cc1)NC1(C(=O)O)CCN(C(=O)c2ccc(-c3cccc(Cl)c3)cc2)CC1,"enzyme activity, inhibitor",10 µM,,activity vs control,103%
C=CC(=O)N1CCc2ccc(-n3c(=O)ccc4cnc5ccc(-c6cnn(C)c6)cc5c43)cc21,KINOMEscan,1 µM,relative to: DMSO control,remaining binding,100%

# Excerpt of the above:
Structure (SMILES),assay,setting,how to read,quantity,result
O=C=[N][Ru-4]123([n]4c5ccc(O)cc5c5c6c(c7cc(F)c[n+]1c7c54)C(=O)NC6=O)[S+]1CC[S+]2CC[S+]3CC1 (stereo not shown),enzyme activity,"100 nM, human enzyme, with: 10 µM ATP",relative to: untreated,remaining activity,104%
